Measurements from different studies.
Each numbered part is a random draw from the data of one study; scales do not carry over between parts.
Sequence of UniProt P23458 (whole entry, looked up): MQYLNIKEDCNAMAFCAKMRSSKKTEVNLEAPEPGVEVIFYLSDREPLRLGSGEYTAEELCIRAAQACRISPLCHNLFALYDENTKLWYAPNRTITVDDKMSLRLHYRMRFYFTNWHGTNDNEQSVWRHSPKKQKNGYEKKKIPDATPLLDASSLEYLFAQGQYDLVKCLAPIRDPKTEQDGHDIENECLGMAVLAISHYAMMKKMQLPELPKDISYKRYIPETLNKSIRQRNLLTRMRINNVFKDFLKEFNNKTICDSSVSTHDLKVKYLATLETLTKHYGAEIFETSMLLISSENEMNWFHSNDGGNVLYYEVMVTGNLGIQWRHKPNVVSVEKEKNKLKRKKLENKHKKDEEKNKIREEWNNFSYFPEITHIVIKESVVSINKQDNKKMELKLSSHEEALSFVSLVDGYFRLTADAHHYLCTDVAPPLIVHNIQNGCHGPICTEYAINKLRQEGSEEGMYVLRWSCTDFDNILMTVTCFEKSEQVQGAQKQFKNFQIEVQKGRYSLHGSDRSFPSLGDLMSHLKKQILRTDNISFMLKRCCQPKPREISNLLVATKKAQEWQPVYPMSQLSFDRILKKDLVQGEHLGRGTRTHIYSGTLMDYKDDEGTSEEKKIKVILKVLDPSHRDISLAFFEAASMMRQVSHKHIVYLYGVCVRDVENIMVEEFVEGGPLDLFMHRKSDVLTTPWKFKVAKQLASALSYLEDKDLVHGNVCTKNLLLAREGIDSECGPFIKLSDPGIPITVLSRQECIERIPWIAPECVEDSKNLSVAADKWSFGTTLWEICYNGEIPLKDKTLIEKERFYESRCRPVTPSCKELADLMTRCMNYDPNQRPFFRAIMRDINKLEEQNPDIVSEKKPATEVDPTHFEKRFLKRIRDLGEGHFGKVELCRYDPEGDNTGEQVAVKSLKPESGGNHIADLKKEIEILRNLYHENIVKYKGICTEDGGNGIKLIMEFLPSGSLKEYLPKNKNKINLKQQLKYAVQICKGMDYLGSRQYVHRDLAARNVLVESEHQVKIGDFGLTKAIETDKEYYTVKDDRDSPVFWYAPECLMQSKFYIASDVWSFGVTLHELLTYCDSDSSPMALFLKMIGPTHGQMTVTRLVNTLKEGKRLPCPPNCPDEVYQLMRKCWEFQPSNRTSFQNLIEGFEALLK
Sequence of UniProt Q14012 (whole entry, looked up): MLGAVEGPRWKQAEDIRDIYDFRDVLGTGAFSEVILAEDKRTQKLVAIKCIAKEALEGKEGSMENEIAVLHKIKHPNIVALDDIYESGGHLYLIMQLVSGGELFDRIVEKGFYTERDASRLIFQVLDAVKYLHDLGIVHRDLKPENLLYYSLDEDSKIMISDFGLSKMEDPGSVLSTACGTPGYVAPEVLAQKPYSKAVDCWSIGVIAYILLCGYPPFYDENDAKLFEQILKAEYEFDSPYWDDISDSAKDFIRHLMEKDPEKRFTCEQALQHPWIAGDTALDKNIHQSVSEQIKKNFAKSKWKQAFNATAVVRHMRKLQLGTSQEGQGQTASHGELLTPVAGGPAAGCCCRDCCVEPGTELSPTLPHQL
Sequence of UniProt Q99640 (whole entry, looked up): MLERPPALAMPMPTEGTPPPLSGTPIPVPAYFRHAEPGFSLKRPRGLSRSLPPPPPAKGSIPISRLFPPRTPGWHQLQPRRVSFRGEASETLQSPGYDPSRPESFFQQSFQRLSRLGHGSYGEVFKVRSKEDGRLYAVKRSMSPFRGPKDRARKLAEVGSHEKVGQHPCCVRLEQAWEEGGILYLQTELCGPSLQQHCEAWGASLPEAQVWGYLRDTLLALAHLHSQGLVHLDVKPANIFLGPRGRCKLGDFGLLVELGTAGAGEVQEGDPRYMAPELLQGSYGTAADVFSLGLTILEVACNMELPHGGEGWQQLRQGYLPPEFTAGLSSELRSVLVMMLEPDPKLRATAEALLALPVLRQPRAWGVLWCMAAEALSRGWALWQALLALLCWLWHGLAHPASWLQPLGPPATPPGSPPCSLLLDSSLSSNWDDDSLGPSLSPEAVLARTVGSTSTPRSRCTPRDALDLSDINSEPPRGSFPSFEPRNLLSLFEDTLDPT
Sequence of UniProt P29317 (whole entry, looked up): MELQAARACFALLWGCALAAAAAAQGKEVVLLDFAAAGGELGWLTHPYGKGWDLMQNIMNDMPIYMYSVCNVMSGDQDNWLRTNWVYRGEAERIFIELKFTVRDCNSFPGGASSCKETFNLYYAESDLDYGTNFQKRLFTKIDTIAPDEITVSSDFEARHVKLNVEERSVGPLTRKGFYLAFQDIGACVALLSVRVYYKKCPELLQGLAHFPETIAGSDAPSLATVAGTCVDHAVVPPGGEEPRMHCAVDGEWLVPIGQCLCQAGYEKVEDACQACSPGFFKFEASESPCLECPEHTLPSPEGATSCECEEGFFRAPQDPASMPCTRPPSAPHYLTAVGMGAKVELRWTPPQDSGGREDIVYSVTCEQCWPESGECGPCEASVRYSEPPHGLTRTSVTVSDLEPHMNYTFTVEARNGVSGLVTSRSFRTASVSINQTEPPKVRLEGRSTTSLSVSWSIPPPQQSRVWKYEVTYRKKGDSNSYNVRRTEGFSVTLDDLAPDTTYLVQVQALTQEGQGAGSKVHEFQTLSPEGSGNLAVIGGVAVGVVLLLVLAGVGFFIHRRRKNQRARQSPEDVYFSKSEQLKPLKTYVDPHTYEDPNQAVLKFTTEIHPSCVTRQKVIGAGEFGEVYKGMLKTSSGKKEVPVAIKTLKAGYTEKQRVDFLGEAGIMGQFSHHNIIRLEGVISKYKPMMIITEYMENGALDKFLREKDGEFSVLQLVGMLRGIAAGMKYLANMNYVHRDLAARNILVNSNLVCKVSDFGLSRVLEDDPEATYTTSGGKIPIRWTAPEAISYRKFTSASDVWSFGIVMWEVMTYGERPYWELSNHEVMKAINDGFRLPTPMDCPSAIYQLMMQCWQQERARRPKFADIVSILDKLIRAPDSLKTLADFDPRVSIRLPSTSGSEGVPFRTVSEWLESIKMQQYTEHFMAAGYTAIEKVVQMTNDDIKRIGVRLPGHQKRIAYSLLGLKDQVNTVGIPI
Sequence of UniProt P07332 (whole entry, looked up): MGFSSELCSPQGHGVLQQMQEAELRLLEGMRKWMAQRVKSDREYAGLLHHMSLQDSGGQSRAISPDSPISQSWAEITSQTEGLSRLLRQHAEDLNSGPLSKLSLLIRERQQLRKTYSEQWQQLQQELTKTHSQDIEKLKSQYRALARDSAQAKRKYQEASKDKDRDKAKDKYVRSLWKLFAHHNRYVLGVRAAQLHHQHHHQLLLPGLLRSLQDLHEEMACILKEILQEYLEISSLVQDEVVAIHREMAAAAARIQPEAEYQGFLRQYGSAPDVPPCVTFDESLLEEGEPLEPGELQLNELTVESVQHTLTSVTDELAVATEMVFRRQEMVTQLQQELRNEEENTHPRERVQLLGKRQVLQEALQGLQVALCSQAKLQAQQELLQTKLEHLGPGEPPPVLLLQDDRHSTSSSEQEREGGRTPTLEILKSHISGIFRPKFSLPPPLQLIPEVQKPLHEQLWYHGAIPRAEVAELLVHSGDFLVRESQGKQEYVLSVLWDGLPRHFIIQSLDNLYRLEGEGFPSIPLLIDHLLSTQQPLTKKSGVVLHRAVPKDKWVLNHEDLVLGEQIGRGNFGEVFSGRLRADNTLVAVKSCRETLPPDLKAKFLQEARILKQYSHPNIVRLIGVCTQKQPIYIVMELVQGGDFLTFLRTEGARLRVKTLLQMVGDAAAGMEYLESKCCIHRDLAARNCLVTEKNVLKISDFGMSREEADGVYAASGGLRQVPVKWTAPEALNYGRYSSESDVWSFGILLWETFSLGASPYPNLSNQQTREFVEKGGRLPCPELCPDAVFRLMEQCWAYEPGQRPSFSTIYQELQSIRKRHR
Sequence of UniProt Q8N5S9 (whole entry, looked up): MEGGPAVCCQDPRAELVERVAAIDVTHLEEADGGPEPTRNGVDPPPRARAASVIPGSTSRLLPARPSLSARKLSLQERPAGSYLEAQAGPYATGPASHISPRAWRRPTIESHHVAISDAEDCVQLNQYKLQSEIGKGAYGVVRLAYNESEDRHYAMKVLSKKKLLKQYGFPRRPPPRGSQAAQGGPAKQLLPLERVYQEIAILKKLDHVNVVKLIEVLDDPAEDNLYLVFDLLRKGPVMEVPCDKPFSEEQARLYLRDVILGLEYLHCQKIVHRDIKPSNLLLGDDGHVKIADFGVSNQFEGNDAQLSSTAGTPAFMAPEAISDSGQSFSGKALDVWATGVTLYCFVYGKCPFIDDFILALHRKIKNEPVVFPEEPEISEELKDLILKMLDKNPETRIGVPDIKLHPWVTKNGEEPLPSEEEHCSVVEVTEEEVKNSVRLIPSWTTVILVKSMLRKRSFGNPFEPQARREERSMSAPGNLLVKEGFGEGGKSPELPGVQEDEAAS
Sequence of UniProt P48730 (whole entry, looked up): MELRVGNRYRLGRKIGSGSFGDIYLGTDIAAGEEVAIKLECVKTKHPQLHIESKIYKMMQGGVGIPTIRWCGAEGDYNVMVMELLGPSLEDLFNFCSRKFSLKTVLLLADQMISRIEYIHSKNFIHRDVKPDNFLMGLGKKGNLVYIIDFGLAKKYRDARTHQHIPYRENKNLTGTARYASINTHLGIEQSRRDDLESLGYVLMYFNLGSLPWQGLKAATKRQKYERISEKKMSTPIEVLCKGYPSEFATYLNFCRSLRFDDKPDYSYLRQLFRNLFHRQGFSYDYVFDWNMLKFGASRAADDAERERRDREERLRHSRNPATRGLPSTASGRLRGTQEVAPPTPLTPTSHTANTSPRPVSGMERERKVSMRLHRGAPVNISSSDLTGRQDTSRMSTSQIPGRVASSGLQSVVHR

Series 1
Target: RING finger protein unkempt homolog, zinc fingers 1-6, GST-SBP tag (UNK, Homo sapiens, UniProt Q9C0B0, residues 30-357)
Technique: RNA Bind-n-Seq
Form: RNA
Medium: in vitro
Concentration: not given
Setting: RNA with constant flanks, human and mouse sites, ends assumed
Baseline: input RNA pool
Direction: higher = stronger binding
Construct (chain): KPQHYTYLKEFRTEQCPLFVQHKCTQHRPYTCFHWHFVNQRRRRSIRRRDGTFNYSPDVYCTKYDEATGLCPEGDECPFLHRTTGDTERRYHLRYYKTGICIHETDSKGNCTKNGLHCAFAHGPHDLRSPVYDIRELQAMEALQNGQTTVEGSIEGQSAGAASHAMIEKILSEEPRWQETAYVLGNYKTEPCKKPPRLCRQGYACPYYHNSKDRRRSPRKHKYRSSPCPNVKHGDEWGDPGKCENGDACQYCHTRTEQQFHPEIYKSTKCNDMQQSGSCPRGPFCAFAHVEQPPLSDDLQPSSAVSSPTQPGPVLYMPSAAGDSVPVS
Oligonucleotide | bound/input enrichment
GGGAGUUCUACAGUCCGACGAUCCAAAACCUAGACGGCCUCUUGAACCAGCUGAAGAACUUCCCUGCGAGGCUUCGGCAGUAUGCUUCCUAUGAGUUUGUUCAGAGGCUGCUGAAAGGCUACAUGAAGAUAAACAUGUUGGUACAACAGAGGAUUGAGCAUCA | 0.0966 ratio
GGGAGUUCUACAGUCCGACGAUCAAUUAUGUACAUCAAAGAUAUCCUAGAUGUAGAGACGAUGGUGUCUGGGAUAAAAGGCAGAGUUAGUUUCUCUCAUAGCAUAUAUUGGCAGAAAUGGUUCUGCAAGAUGCUCAAAGGCAUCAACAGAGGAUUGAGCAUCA | 7.04 ratio
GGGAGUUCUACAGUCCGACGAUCUACCUGUGUCCCGGCAGCCUGAUUGCUGGCAGUGCCGUUCUACUGUAUGCUUUCGUGGAGACUCGGGACAACUACUUCUACAUUCACAGCAUUUGGCACAUGCUCAUUGCUGGCAGUGUGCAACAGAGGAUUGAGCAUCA | 0.129 ratio
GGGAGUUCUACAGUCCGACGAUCGGAAAAGCGAGGUAAUUGUGAGCCCAGGGUGGGGCGUGCUGGAUGGGGGCCGGCAUUGGAAGGGGUGACCCUGGGAGCUGGGCUGCAUUACAGACUCACCCCUUUGUCCCAUUCCCUGGGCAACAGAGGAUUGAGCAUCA | 0.359 ratio
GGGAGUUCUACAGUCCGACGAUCGUUGGUACCUCUGUAAAAACUUUAGUGUUAGCGUACAGCUCUGCAGUCUCCAGCAAAAUGGUUAGGCAGAUUUUAGAGCUUUGUCCUAACCUGGAACAUCUGGAUCUUACCCAGACCGACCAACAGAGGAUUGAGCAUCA | 0.768 ratio
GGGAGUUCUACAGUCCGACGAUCCAUGGCGGCCGCCCCGGAGCCCCACGAGACGGAGAAAAAGCCCUUCAAGCUCCUAGGUAUUUUAGAUGUUGAGAACACUCCAUGUGCUCGAGAAUCUAUACUCUAUGGCUCAUUAGGAUCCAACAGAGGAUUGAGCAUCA | 0.662 ratio
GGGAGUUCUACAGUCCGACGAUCACUUUGAUUGACAAGGUCCCUCAAGAACUUACACAGCCAGCUUUGAGGAAAUCUAGACUGUUCUGACAACAGCAUCUGGAGUUGUAAUUGUUGUAAUUUUCUUCCUGUACUGUCUCAGUCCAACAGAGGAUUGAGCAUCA | 0.113 ratio
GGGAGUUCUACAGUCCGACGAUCGGCAUGAAGCUUGCUUGAGCCAAUGCUAUGCUUGCUGGGCUUUGGCUGACUGGCUUUGGGCCACCAACUGUAUUUGCAUAGUGAUGGCUUGGAAGUGUCCAUAGAAGGGAUUGCAAUAAACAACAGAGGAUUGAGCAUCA | 0.276 ratio

Series 2
SMILES: O=C(Nc1cccnn1)N1CCC(=Cc2cccc(Oc3ccc(C(F)(F)F)cn3)c2)CC1
Read-out: cell-free assay
Technique: competition with immobilised ligand
Concentration: 1 µM
target | remaining binding
Tyrosine-protein kinase JAK1, JH2 (JAK1, Homo sapiens, UniProt P23458) | 100%
CSNK2A1 (Homo sapiens, UniProt P68400) | 100%
EGFR (Homo sapiens, UniProt P00533, G719C) | 100%
PLK3 (Homo sapiens, UniProt Q9H4B4) | 100%
FES (Homo sapiens, UniProt P07332) | 76%
FLT3 (Homo sapiens, UniProt P36888, R834Q) | 100%
ANKK1 (Homo sapiens, UniProt Q8NFD2) | 96%
MAPK6 (Homo sapiens, UniProt Q16659) | 90%
EPHB3 (Homo sapiens, UniProt P54753) | 81%
PIK3CB (Homo sapiens, UniProt P42338) | 100%
Ribosomal protein S6 kinase alpha-5, C-terminal kinase domain (RPS6KA5, Homo sapiens, UniProt O75582) | 83%
PIK3CA (Homo sapiens, UniProt P42336, E545K) | 100%
PKMYT1 (Homo sapiens, UniProt Q99640) | 100%
MAP3K5 (Homo sapiens, UniProt Q99683) | 100%
RIPK2 (Homo sapiens, UniProt O43353) | 94%
CSNK1G1 (Homo sapiens, UniProt Q9HCP0) | 100%
DAPK1 (Homo sapiens, UniProt P53355) | 100%

Series 3
SMILES: c1ccc(-c2n[nH]c3c2oc2ccccc23)cc1
Read-out: enzyme activity
Mode: inhibitor
Concentration: 0.5 µM
Baseline: control
target | remaining activity
TYRO3 (Homo sapiens, UniProt Q06418) | 87.6%
CAMKK1 (Homo sapiens, UniProt Q8N5S9) | 97%
CSNK1E (Homo sapiens, UniProt P49674) | 91.8%
FLT1 (Homo sapiens, UniProt P17948) | 94.5%
IGF1R (Homo sapiens, UniProt P08069) | 98.1%
PAK6 (Homo sapiens, UniProt Q9NQU5) | 87.5%
JAK1 (Homo sapiens, UniProt P23458) | 104%
MUSK (Homo sapiens, UniProt O15146) | 72.6%
PRKCZ (Homo sapiens, UniProt Q05513) | 87.1%
CSNK1D (Homo sapiens, UniProt P48730) | 93.1%
EPHA2 (Homo sapiens, UniProt P29317) | 105%
CAMK1 (Homo sapiens, UniProt Q14012) | 85.2%
MAP3K20 (Homo sapiens, UniProt Q9NYL2) | 96.2%
PRKCQ (Homo sapiens, UniProt Q04759) | 83.8%
CLK2 (Homo sapiens, UniProt P49760) | 94.8%

Series 4
Target: Transcription factor SOX-2, HMG box (SOX2, Homo sapiens, UniProt P48431, residues 37-118)
Sequence of UniProt P48431 (37-118, looked up): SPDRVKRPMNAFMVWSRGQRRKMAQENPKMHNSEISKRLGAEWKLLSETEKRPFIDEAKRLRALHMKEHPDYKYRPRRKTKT
Technique: protein-binding microarray
Form: hairpin DNA
Medium: in vitro
Concentration: not given
Setting: whole hairpin DNA, median over replicate spots
Baseline: not given
Direction: higher = stronger binding
Constant ends, left off below: GCAGGCC … GGCCTGCACACTCTTTCCCTACACGAC
Oligonucleotide | median fluorescence
CACAATCGGCCTCCTGGCCGATTGTG | 2970 a.u.
CTCAATGGGCCTCCTGGCCCATTGAG | 3110 a.u.
CACAATCGGCCTCCTGGCCGATTGTG (5mC at 14) | 2770 a.u.
GACAATGGGCCTCCTGGCCCATTGTC | 3200 a.u.
CACAACCGGCCTCCTGGCCGGTTGTG (5mC at 13) | 2450 a.u.
CAGAATGGGCCTCCTGGCCCATTCTG | 2500 a.u.
CACACGGGGCCTCCTGGCCCCGTGTG (5mC at 12 28) | 2320 a.u.
CACACAGGGCCTCCTGGCCCTGTGTG (5mC at 12) | 2470 a.u.

Repeated from above (series 2):
target | remaining binding
CSNK1G1 (Homo sapiens, UniProt Q9HCP0) | 100%
EGFR (Homo sapiens, UniProt P00533, G719C) | 100%
PKMYT1 (Homo sapiens, UniProt Q99640) | 100%
CSNK2A1 (Homo sapiens, UniProt P68400) | 100%
PLK3 (Homo sapiens, UniProt Q9H4B4) | 100%
FLT3 (Homo sapiens, UniProt P36888, R834Q) | 100%
RIPK2 (Homo sapiens, UniProt O43353) | 94%
MAPK6 (Homo sapiens, UniProt Q16659) | 90%
